Measurements gathered from unrelated publications.
Each numbered part is a random draw from the data of one study; scales do not carry over between parts.

Block 1
Target: Interferon regulatory factor 7, full length, phosphomimetic (IRF7, Homo sapiens, UniProt Q92985, residues 1-503, S101K/S471D/S472D/S475D/S476D/S477D/S483D/S484D/S487D)
UniProt Q92985, sequence (whole entry, unmodified, looked up): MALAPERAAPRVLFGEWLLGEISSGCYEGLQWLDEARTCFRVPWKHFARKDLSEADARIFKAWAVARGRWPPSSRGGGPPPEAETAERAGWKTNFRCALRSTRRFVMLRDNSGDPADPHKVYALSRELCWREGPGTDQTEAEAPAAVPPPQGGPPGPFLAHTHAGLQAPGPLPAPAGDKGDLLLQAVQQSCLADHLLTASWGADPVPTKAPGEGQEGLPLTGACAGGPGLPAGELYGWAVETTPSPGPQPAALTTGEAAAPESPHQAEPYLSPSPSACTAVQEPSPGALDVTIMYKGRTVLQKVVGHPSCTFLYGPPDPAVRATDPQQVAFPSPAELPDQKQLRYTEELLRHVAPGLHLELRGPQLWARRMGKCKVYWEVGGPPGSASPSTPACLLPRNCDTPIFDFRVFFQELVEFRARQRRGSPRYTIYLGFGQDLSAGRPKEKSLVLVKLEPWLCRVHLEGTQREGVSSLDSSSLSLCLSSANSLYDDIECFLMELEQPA
Technique: protein-binding microarray
Form: double-stranded DNA, one strand shown
Sample: in vitro
Concentration: 250 nM
Setting: 60-bp whole probe
Added: salmon DNA 0.4 mg/ml
Reference: random background probes
Direction: higher = stronger binding
Quantity: log fluorescence
Shared flanks, not repeated: GCCTAGCAC … GTCTTGATTCGCTTGACGCTGCTG
GACGGACTGCTAATCCTGACGTGCTAG: -0.606 z-score
TTAGAACGGAGACTGGATTAGTGCTAG: -0.273 z-score
CAATTCCTGAAATCTCTTTCCGTGCTA: 1.09 z-score
TTAGATATCGGGTATCTATTAGTGCTA: 0.164 z-score
CGAGTTTCTATTTTCTGAATGTGCTAG: 9.91 z-score
CTTTGCTCATTTTTCAGGGAGTGCTAG: 0.504 z-score
GACGAGCTCAGACTGGAGACGTGCTAG: -0.793 z-score
TTAGGTATCGCCTATCGGTTAGTGCTA: -0.109 z-score
TCAAGTCTAGCCATTGTGACTGTGCTA: -0.543 z-score
TTAGAACCGAGTTTCGATTAGTGCTAG: 8.53 z-score
GAATGTGTCTTAAATAGGGCAGTGCTA: -0.198 z-score
GACGTTCTCGGTATCGGGACGTGCTAG: 1.39 z-score
TTGGCTTCCTCTTTCTCTGCGTGCTAG: 0.282 z-score
TTAGGCCTGGGGTTTCGGTTAGTGCTA: 4.37 z-score
TTAGGTTTCGTCACTGGGTTAGTGCTA: 1.68 z-score
TTAGGACTGGACACTGGGTTCGTGCTA: -0.791 z-score
GTTTTTTTCTATATGCAATGGTGCTAG: 3.04 z-score

Block 2
Target: Centromere-binding protein 1, full length, His-tagged (CBF1, Saccharomyces cerevisiae, UniProt P17106, residues 1-351)
UniProt P17106, sequence (whole entry, looked up): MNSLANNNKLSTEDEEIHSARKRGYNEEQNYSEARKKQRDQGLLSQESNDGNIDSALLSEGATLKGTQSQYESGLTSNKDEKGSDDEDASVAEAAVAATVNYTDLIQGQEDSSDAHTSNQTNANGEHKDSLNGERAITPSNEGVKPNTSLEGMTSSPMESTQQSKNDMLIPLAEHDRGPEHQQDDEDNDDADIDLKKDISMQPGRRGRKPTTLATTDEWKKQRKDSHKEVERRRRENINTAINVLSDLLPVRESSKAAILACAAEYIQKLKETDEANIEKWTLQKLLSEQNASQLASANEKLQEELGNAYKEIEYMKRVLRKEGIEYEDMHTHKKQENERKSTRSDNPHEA
Technique: competition protein-binding microarray
Form: double-stranded DNA, one strand shown
Sample: in vitro
Concentration: 2 µM
Setting: whole 60-bp probe, lowest competitor level
Added: Pho4 competitor, 0.05 µM
Direction: higher = stronger binding
Quantity: fluorescence intensity
Shared flanks, not repeated: … GTCTTGATTCGCTTGACGCTGCTG
AAGACCCCGGTAAAATTCGTGACGGATCATCGCCTA: 65.2 a.u.
CGGGGTTAAGTTTGATGAGTGGGTGGCTTGCAGCAG: 71.7 a.u.
TGCGCAACAACTTTTCACGTGGTGTTATGTCTAGAA: 1130 a.u.
AAACAGTGCTCAATAATCGTGACGGGAGGGTCATTA: 93.2 a.u.
CTACTACAGCGTAGGCACGGGTGCATACATCTTCAA: 83.3 a.u.
TGCGCAACAACTTGTTCTGTGGGTGTATGTCTAGAA: 72.1 a.u.
CAGCTTCAACCAAATAACGTGGGTATTCTGGAACGA: 101 a.u.
TACGCTGCCAGCGATTTCGTGCCAGCAGCTTTGACT: 70 a.u.
GCCCGACGATTTGCCCACATGTCAATCGGATTGGGC: 80.1 a.u.
CGTCCTAGTGATTGCTTTGTGGGTGCCATGAGGAAG: 85.5 a.u.

Block 3
Target: Histone acetyltransferase KAT6A, winged helix 1, GST fusion (KAT6A, Homo sapiens, UniProt Q92794, residues 1-85)
Technique: protein binding microarray
Form: double-stranded DNA, one strand shown
Sample: in vitro
Concentration: not given
Setting: 8-mer, flanks averaged, mean of 2 arrays, mostly near background
Reference: not given
Direction: higher = stronger binding
Quantity: E-score
Residues (chain): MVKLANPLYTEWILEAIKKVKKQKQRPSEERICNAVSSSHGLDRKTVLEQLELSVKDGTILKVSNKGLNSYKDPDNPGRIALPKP
CAGGAGCG: 0.251
TGGTGTAA: -0.155
AAGATTGG: -0.109
GGGACGAA: 0.107
GGTAATCA: 0.128
CGATTCCC: 0.0562
ATAGACTA: -0.217
AACAATAT: -0.0477
CGAATTTC: 0.00675
CAGAGGTA: -0.167
CGGGATGA: 0.166
ATTGGGAA: -0.201
GGACCCCA: -0.159
CTTCATGC: 0.0406
GATAGTGA: 0.0178
AGGATAGC: -0.0133

Other studies, line by line
PhoQ, residues 284 288 289 292 302 303 SLSLLA — fold induction (PhoP, residues 12 14 15 18 19 SYFRT (Escherichia coli, UniProt P23836); Sort-seq, measured: YFP reporter; E. coli; PhoQ-PhoP variant library, added: 10 µM Mg2+; reference: high Mg2+ state, higher = stronger signaling): 4.45

Some of these lines once more (block 2):
AAGACCCCGGTAAAATTCGTGACGGATCATCGCCTA: 65.2 a.u.
CGTCCTAGTGATTGCTTTGTGGGTGCCATGAGGAAG: 85.5 a.u.
CTACTACAGCGTAGGCACGGGTGCATACATCTTCAA: 83.3 a.u.
GCCCGACGATTTGCCCACATGTCAATCGGATTGGGC: 80.1 a.u.
CGGGGTTAAGTTTGATGAGTGGGTGGCTTGCAGCAG: 71.7 a.u.
